Experimental data of several laboratories.
“And” joins repeats or separate records; there may be more than shown. Numbers after ± are the reported error.

With `O=S(=O)(CCC(F)(F)F)N[C@H]1CC[C@H](Nc2ncc3c(-c4ccccn4)n[nH]c3n2)CC1` the EC50 was 101 ± 8 nM (Leishmania donovani; cell growth; promastigotes, LdBOB; life-cycle stage comparison).
`CCC1(CC)CC(=O)N(C2c3cc(C(=O)NC4c5ccccc5CC4O)ccc3OC2(C)COC)C(=N)N1` (centres unmarked) gave an EC50 of 0.4 nM (Plasmodium falciparum; parasite growth; 3D7).
`Cc1cc(Cl)cc(S(C)=NC#N)c1NC(=O)c1cc(Br)nn1-c1ncccc1Cl` (centres unmarked) gave a mortality of 50% (Spodoptera litura; leaf-dip; third instar larvae; 12.5 ppm, 48 h).
`[O-][N+]1=C(c2ccsc2)C2=NCCCN2c2ccccc21` has an MIC90 of 0.5 µg/mL (Bacteroides fragilis).
`CC(C)[C@H]1NC(=O)[C@H](Cc2ccccc2)NC(=O)[C@@H](C(C)C)NC(=O)[C@@H](C)NC(=O)[C@H](CO)NC(=O)[C@@H](Cc2c(-c3ccc(-c4ccc(-c5ccccc5)cc4)cc3)[nH]c3ccccc23)NC(=O)[C@@H](CO)NC1=O` has an MIC90 of over 50 µM (Vibrio vulnificus; broth dilution).
`CCCC/C=C/C(=O)N[C@@H](Cc1csc2ccccc12)C(=O)N[C@H]1COC(=O)[C@@H]2C[C@@H](C)CN2C(=O)[C@H](C)NC(=O)[C@@H]2CCCCN2C(=O)[C@@H]2CCCN2C1=O` gave an RNA release of 0.239 and 0.273 and 0.285 (human coronavirus OC43; Huh-7 CLPP knock-out 1; concentration not given, unit not given; baseline: DMSO).
`Cc1cc(C(=O)Nc2nc3cccc(C)c3n2[C@H]2CCCCN(C(=O)/C=C/CN(C)C)C2)ccn1` has a cell growth of 66.7% and 73.3% and 80% (Trypanosoma brucei brucei; 2T1 parental; 10 x EC50, 24 h; baseline: time 0 h).
`NCCC[C@@H]1NC(=O)[C@@H](CCCN)NC(=O)[C@H](Cc2ccccc2)NC(=O)[C@@H](Cc2cccc(F)c2)NC(=O)[C@H](Cc2ccccc2)NC(=O)[C@@H](CCCN)NC1=O` has an IC90 of over 20000 nM (Balamuthia mandrillaris; parasite growth, ATP luminescence).
`CC(O)CN.O=C(O)C(Cl)Cl` has an inhibition of 0% (Amaranthus retroflexus; herbicidal activity; 15 mg/mL, 21 days, pre-emergence greenhouse).
With `CC(C)C[C@H](NC(=O)[C@H](CC(=O)O)NC(=O)[C@@H](NC(=O)[C@H](CCC(=O)O)NC(=O)[C@H](CCCCN)NC(=O)[C@H](Cc1ccc(O)cc1)NC(=O)[C@H](CCCCN)NC(=O)[C@H](Cc1c[nH]cn1)NC(=O)CNC(=O)CN)[C@@H](C)O)C(N)=O` the selectivity index was over 23 (hepatitis C virus; Huh-7 ET replicon; baseline: TC50 over IC50).
The inhibition of `CCOC(=O)C1(Cc2ccc(C(F)(F)F)cc2)Oc2cc(F)ccc2N(Cc2ccc(C(F)(F)F)cc2)C1=O` (centres unmarked) is reported as 40.4 ± 3.36% (Amaranthus retroflexus; fresh weight, greenhouse postemergence; postemergence, 150 g ai/ha, 21 days).
`CN(C(=O)c1ccn2ncc(-c3ccc(C(N)=O)cc3)c2c1)c1ccc(C#N)cn1`: “faecal Nluc luminescence” 137 a.u. and 55 a.u. and 320 a.u. and 2740 a.u. and 206 a.u. (Cryptosporidium parvum; UGA1 Nluc, IFN-gamma knockout C57BL/6 mice, faeces; oral, 10 mg/kg daily, 384 h post infection, treatment days 11-17; higher means more parasites).
`CCc1nn(C)c2nc(-c3ccc(C(=O)O)cc3)nc(NCc3ccccc3)c12` gave a parasite number of 109% and 101% and 93.3% and 96.8% (Cryptosporidium parvum; HCT-8; EC50, 0 h; baseline: DMSO control).
With `FC(F)(F)c1cccc(CNc2nc(NC3CCN(Cc4ccccc4)CC3)c3nc[nH]c3n2)c1` the fold change was 1.32 (Cryptococcus neoformans; mRNA level, RNA-seq, measured: ASP1 CNAG_02161; 48 µg/mL, 3 h; baseline: untreated).
